{"data": "Experimental data pooled from the literature", "note": "Several values in a cell are separate wells, animals, samples, runs or records."}
{"SMILES": "COc1ccccc1-c1n[nH]c2nc(NC3CCN(C(=O)Cc4ccc(F)cc4F)CC3)ncc12", "assay": "bead binding, competition bead pull-down, refers to: LINJ.23.1460", "test system": "Leishmania donovani extract", "conditions": "10 µM", "scale": "baseline: vehicle", "measurement": "relative abundance", "value": 0.94}
{"SMILES": "CCN(CC)CCO.O=C(O)C(Cl)Cl", "tested on": "Chenopodium album", "assay": "herbicidal activity", "conditions": "15 mg/mL, 21 days, pre-emergence greenhouse", "measurement": "inhibition", "value": "0%"}
{"SMILES": "CC(C)CC(C(=O)N1CC2(CC1C#N)C(=O)Nc1ccccc12)N(C)C(=O)c1cc2c(F)cc(F)c(F)c2[nH]1 (stereo not drawn)", "tested on": "human coronavirus 229E", "assay": "viral replication", "conditions": "4.6e-05 µM", "measurement": "inhibition", "value": "42.5%"}
{"SMILES": "Cc1cc(Oc2nc(N3CC[C@@H](c4ccncc4)C3)ncc2F)[nH]n1", "tested on": "Mycobacterium tuberculosis", "assay": "OD", "test system": "H37Rv PurF CRISPRi knockdown", "conditions": "0.000244 µM, with: anhydrotetracycline low", "measurement": "normalised growth", "value": "78% and 81% and 83%"}
{"SMILES": "CC(C)(C)C(=O)OCOP(=O)(OCOC(=O)C(C)(C)C)C1CCCN(O)C1=O (stereo not drawn)", "tested on": "UACC-62", "measurement": "log GI50", "value": "-6.5 log M"}
{"SMILES": "CCN(CC)C(=O)[C@@H]1C=C2c3cccc4c3c(cn4C(=O)c3ccco3)C[C@H]2N(C)C1", "assay": "head-twitch response, magnetometer detection", "test system": "mouse C57BL/6J male", "conditions": "intraperitoneal, 30 min session", "measurement": "ED50", "value": "0.23 mg/kg"}
{"SMILES": "Cc1cc(C(=O)Nc2nc3cccc(C)c3n2[C@H]2CCCCN(C(=O)/C=C/CN(C)C)C2)ccn1", "tested on": "Trypanosoma brucei brucei", "test system": "2T1 CLK1 C215S overexpressing", "conditions": "0.09259 µM, 72 h", "measurement": "survival", "value": "102% and 105% and 96.2% and 94.3% and 90.7%"}
{"SMILES": "COc1ccccc1-c1n[nH]c2nc(N[C@H]3CC[C@H](NS(=O)(=O)CC(C)C)CC3)ncc12", "assay": "bead binding, competition bead pull-down, refers to: LINJ.25.1530", "test system": "Leishmania donovani extract", "conditions": "10 µM", "scale": "baseline: vehicle", "measurement": "relative abundance", "value": 0.47}
{"SMILES": "CCN(CC)C(=O)[C@@H]1C=C2c3cccc4c3c(cn4C(=O)c3cccs3)C[C@H]2N(C)C1", "assay": "magnetometer", "test system": "C57BL/6J mouse, male", "conditions": "intraperitoneal, 0.25 mg/kg, 30 min session", "measurement": "head-twitch response count", "value": 12.8}
{"note": "Repeated from above:"}
{"SMILES": "COc1ccccc1-c1n[nH]c2nc(NC3CCN(C(=O)Cc4ccc(F)cc4F)CC3)ncc12", "assay": "bead binding, competition bead pull-down, refers to: LINJ.23.1460", "test system": "Leishmania donovani extract", "conditions": "10 µM", "scale": "baseline: vehicle", "measurement": "relative abundance", "value": 0.94}
